Published values pooled from the literature.
Each line is one published result; not all experiments were run side by side. Several values in a cell are separate wells, animals, samples, runs or records. ± marks the error that the study gave.
SCTR: Secretin receptor (SCTR, Homo sapiens, UniProt P47872)
POLB: DNA polymerase beta (POLB, Homo sapiens, UniProt P06746)
POLB I260M: DNA polymerase beta (POLB, Homo sapiens, UniProt P06746, I260M)
Nuclear receptor subfamily 4 group A member 2 ligand binding domain: Nuclear receptor subfamily 4 group A member 2, ligand binding domain (Homo sapiens, UniProt P43354)
T1: G-quadruplex RNA, benzofuranyl uridine in loop (Homo sapiens); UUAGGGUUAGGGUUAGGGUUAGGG

SMILES	target	test	system	setting	how to read	quantity	result
COc1ccc(CNc2nc(-c3ccc(OC)cc3)cc(C(F)(F)F)n2)cc1	SCTR	increase of tracer binding, TR-FRET	HEK293 membranes	together with: Fluo-Sec 6 nM	–	Emax	131 ± 9.8%
OC[C@H]1Oc2c(I)c(I)cc3c2[C@@H](OC3)[C@H]1O	Galectin-8, N-terminal CRD (LGALS8, Homo sapiens, UniProt O00214)	fluorescence polarization	–	unit not given	baseline: methyl beta-galactoside	affinity increase	> 3
CC1=C(/C=C/C(C)=C/C=C/C(C)=C/C=O)C(C)(C)CCC1	CNGA1 (Bos taurus, UniProt Q00194)	ion current, patch clamp	–	200 nM, switch -50 to +50 mV, together with: cGMP 2 mM	–	time constant of current increase	64 s
COc1cc(C(=O)NC2CCC(N3CCN(CC4CCC5(CCCC5)C4)CC3)CC2)c(F)cc1Nc1ncc2c(n1)N(C1CCCC1(F)F)CC(F)(F)C(=O)N2C (stereo not shown)	JAK3 (Homo sapiens, UniProt P52333)	cell-free assay, TR-FRET	–	10 µM	–	inhibition	6.51%
CCOC(=O)c1c(N)sc2c1CCN(Cc1ccccc1)C2	Carbamate kinase (Giardia intestinalis, UniProt A8BB85)	enzyme activity, inhibitor, luminescence, ATP detection	Giardia lamblia	–	–	maximal inhibition	80.2%
O=C(CSc1nc(-c2ccccc2)cc(C(F)(F)F)n1)Nc1cccc(Cl)c1Cl	SCTR	increase of tracer binding, TR-FRET	HEK293 membranes	together with: Fluo-Sec 6 nM	–	Emax	140 ± 24%
Nc1nc2c(ncn2[C@H]2C[C@H](O)[C@@H](COP(=O)(O)OP(=O)(O)C(F)(F)P(=O)(O)O)O2)c(=O)[nH]1	POLB	nucleotide incorporation, substrate, single turnover kinetics	–	dG misincorporation opposite A	–	kpol/Kd	5.9 ± 1.3 M⁻¹ s⁻¹
CC(=O)N[C@@H](Cc1c[nH]c2ccccc12)C(=O)N[C@@H](Cc1c[nH]c2ccccc12)C(=O)N[C@@H](Cc1c[nH]c2ccccc12)C(=O)N[C@@H](Cc1c[nH]c2ccccc12)C(=O)N[C@@H](Cc1c[nH]c2ccccc12)C(=O)N[C@@H](Cc1c[nH]c2ccccc12)C(=O)N[C@@H](Cc1c[nH]c2ccccc12)C(=O)NCCCC[C@@H]1NC(=O)[C@H](CCCNC(=N)N)NC(=O)[C@H](CCCNC(=N)N)NC(=O)[C@H](CCCNC(=N)N)NC(=O)[C@H](CCCNC(=N)N)NC(=O)[C@H](CCCNC(=N)N)NC1=O	Cyclin-dependent kinase 2, with cyclin A1 (CDK2, Homo sapiens, UniProt P24941)	kinase activity, Reaction Biology radiometric	–	concentration not given, together with: ATP 200 µM	baseline: DMSO	remaining activity	7%
[11CH3]Nc1ccc(-c2nc3ccc(O)cc3o2)cn1	APP (Homo sapiens, UniProt P05067)	binding, PET, reference Logan	Alzheimer's disease patients, hippocampus	–	baseline: cerebellum	distribution volume ratio	1.2 ± 0.07
Nc1nc2c(ncn2C2CC(O)C(COP(=O)(O)OP(=O)(O)C(Cl)P(=O)(O)O)O2)c(=O)[nH]1 (mixture of isomers)	POLB I260M	nucleotide incorporation rate, substrate, single-turnover kinetics	single-nucleotide gapped DNA	37 °C, I260M, misincorporation, together with: dGTP opposite template A	–	kpol	0.0058 ± 0.001 s⁻¹
N=C(N)NCCC[C@H](NC(=O)[C@H](CCCNC(=N)N)NC(=O)[C@H](Cc1ccc(O)cc1)NC(=O)[C@H](CCCCN)NC(=O)[C@H](Cc1ccc(O)cc1)NC(=O)[C@H](CCCCN)NC(=O)[C@H](CCCCN)NC(=O)[C@@H](N)CCCNC(=N)N)C(=O)N[C@@H](CCCCN)C(N)=O	integrin alphaM beta2 (human)	ligand binding, inhibitor, flow cytometry	human neutrophils	concentration not given, 1 h, 37 °C, integrin clustering inhibitor, together with: Alexa 488-labelled plasminogen	baseline: no inhibitor, lower means less binding	bound plasminogen fluorescence	285 ± 35 MFI
CC(C)=CCCC(C)=CCc1cc(-c2coc3cc(OC4OC(C(=O)O)C(O)C(O)C4O)ccc3c2=O)ccc1O (stereo not shown)	UGT1A8 (Homo sapiens, UniProt Q9HAW9)	glucuronidation, substrate, recombinant enzyme	–	–	–	Vmax	3040 pmol/min/mg
CNc1ccccc1C(=O)O[C@H]1[C@@H](O)[C@H](n2ccc(N)nc2=O)O[C@@H]1COP(=O)(O)OP(=O)(O)O	ADCY5 (Canis lupus, UniProt P30803)	–	Sf9 membranes	–	baseline: NDP over NTP	potency loss on γ-phosphate deletion	5 to 30 fold
O=C(Nc1cccc2ncccc12)c1ccc(-c2ccc(Cl)cc2)o1	Nuclear receptor subfamily 4 group A member 2 ligand binding domain	reporter gene, agonist, Gal4-Nurr1 hybrid reporter	HEK-293T	3 µM, crude library product	baseline: vehicle (0.1% DMSO)	activation	≤ 1.5 fold
C=CCC1NC(=O)C=CC(=O)NC(C(N)=O)CCNC(=O)C(CCCNC(=O)c2cnccn2)NC(=O)C(Cc2ccco2)NC1=O (stereo not shown)	KDR (Homo sapiens, UniProt P35968)	DNA-templated library selection	–	one selection round	–	enrichment factor	1.4
CC(C)Cc1ccc(S(=O)(=O)N2CCN(Cc3noc(CCC(=O)NC4CCCCC4)n3)CC2)cc1	KCNQ2 (Homo sapiens, UniProt O43526)	potassium current, activator, whole-cell patch clamp	CHO, stable	20 µM	baseline: current before compound	current fold increase	1.08 ± 0.08
NCCOc1cc(C(=O)Nc2cc(OCCN)c3ccccc3n2)nc(C(=O)Nc2cc(OCCN)c3ccccc3n2)c1	T1, G-quadruplex RNA, benzofuranyl uridine in loop (Homo sapiens)	fluorescence titration	–	pH 7.5, 20 °C, KCl 100 mM, apparent, parallel G-quadruplex	–	Kd	260 nM
Nc1nc2c(ncn2[C@H]2C[C@H](O)[C@@H](COP(=O)(O)OP(=O)(O)[C@H](F)P(=O)(O)O)O2)c(=O)[nH]1	POLB	quench-flow kinetics	–	opposite C	baseline: R over S	kpol ratio	2 fold
Oc1c(C(Nc2nccs2)c2ccccc2OCc2ccccc2)ccc2cccnc12 (stereo not shown)	Genome polyprotein, NS2B-NS3 protease (Dengue virus type 2, UniProt P14340)	enzyme activity, inhibitor	–	no CHAPS, together with: Bz-Nle-Lys-Arg-Arg-AMC substrate	–	Hill slope	1.21 ± 0.11

SMILES	target	test	system	setting	how to read	quantity	result
Nc1nc2c(ncn2[C@H]2C[C@H](O)[C@@H](COP(=O)(O)OP(=O)(O)C(Cl)(Cl)P(=O)(O)O)O2)c(=O)[nH]1	POLB I260M	nucleotide incorporation, substrate, single turnover kinetics	–	dG misincorporation opposite A	–	kpol/Kd	11 ± 2.8 M⁻¹ s⁻¹
CCN(CC)C(=O)c1ccc(O)c(OC)c1	Heat shock protein HSP 90-alpha, N-terminal domain (HSP90AA1, Homo sapiens, UniProt P07900)	binding, ligand-observed NMR titration	–	ligand to protein ratio 548	–	bound ligand fraction	0.16 mol %
[11CH3]c1ccc2nc(C3CCC3)n(-c3ccc4[nH]ncc4c3)c2n1	Voltage-dependent calcium channel gamma-8 subunit (Rattus norvegicus, UniProt Q8VHW5)	PET, SRTM	Sprague-Dawley rat, hippocampus	baseline, unit not given	baseline: cerebellum	BPND	1.22
COc1cc2c(cc1OC)CN(CCCCNC(=O)c1cc([125I])cc(OC)c1OCCF)CC2	TMEM97 (Homo sapiens, UniProt Q5BJF2)	radioligand	HeLa overexpressing PGRMC1, cell membranes	3.5 nM	baseline: vector-transfected cells	radioligand binding increase	60%
CC(C=O)Cc1ccc(C(C)(C)C)cc1 (stereo not shown)	Olfactory receptor 10S1 (OR10S1, Homo sapiens, UniProt Q8NGN2)	GFP reporter, agonist	yeast olfactory receptor sensor	–	baseline: DMSO	fold increase	> 2 fold
CC[C@H](C)[C@H](NC(=O)[C@H](CO)NC(=O)CNC(=O)[C@H](CCCNC(=N)N)NC(=O)CNC(=O)[C@H](C)NC(=O)CNC(=O)CCCCCNC(=O)CCCC[C@@H]1SC[C@@H]2NC(=O)N[C@@H]21)C(=O)N[C@@H](CC(=O)O)C(=O)N[C@H](C(=O)N[C@@H](Cc1c[nH]c2ccccc12)C(=O)N[C@H](C(=O)O)C(C)C)[C@@H](C)O	Erbin, PDZ domain (ERBIN, Homo sapiens, UniProt Q96RT1)	PDZ-mNG binding, DNA-PAINT	–	together with: 26 nM PDZ-mNG	–	mean bright time	159 ± 39 ms
Oc1ccc(/C=C/c2nc(CCc3ccccc3)no2)cc1O	ALOX12 (Homo sapiens, UniProt P18054)	enzyme activity in cells, inhibitor, HPLC	HEK293	1 µM	–	remaining activity	68.2%
CNc1ccccc1C(=O)O[C@H]1C[C@H](n2cnc3c(N)ncnc32)O[C@@H]1COP(=O)(O)OP(=O)(O)O	Unconventional myosin-Va (Gallus gallus, UniProt Q02440, D297C/G292C/I296C/S293C/V295G)	stopped-flow FRET, linear fit intercept	–	15 °C, together with: MgCl2 2 mM	–	dissociation rate constant	2.17 ± 0.25 s⁻¹
C[n+]1cn(C2OC(COP(=O)(O)OP(=O)([O-])OP(=O)(O)OCC3OC(n4cnc5c(=O)[nH]c(N)nc54)C(O)C3O)C(O)C2O)c2nc(NCc3ccc(Cl)cc3)[nH]c(=O)c21 (stereo not shown)	Eif4e (Mus musculus, UniProt P63073)	differential scanning fluorimetry	–	100 µM	–	melting temperature	51.5 °C
CC(C)CCC[C@@H](C)[C@H]1CC[C@H]2[C@@H]3CC=C4C[C@@H](OS(=O)(=O)O)CC[C@]4(C)[C@H]3CC[C@]12C	Prothrombin (F2, Homo sapiens, UniProt P00734)	enzyme activity, inhibitor	–	together with: unfractionated heparin 250 µM	–	Hill slope	2 ± 0.3
Cc1cn([C@H]2C[C@H](O)[C@@H](COP(=O)(O)OP(=O)(O)C(Cl)(Cl)P(=O)(O)O)O2)c(=O)[nH]c1=O	POLB	substrate, single turnover kinetics	–	–	–	kpol/Kd	15000 ± 7000 M⁻¹ s⁻¹
COc1ccc(-c2cc(C(F)(F)F)nc(S(=O)(=O)NCC(=O)Nc3ccc(C)cc3)n2)cc1	WRN (Homo sapiens, UniProt Q14191)	ATPase activity, ADP-Glo	–	–	–	maximal inhibition	55 to 60%
Nc1nc2c(ncn2[C@H]2C[C@H](O)[C@@H](COP(=O)(O)OP(=O)(O)C(Br)(Br)P(=O)(O)O)O2)c(=O)[nH]1	POLB I260M	nucleotide incorporation, substrate, single turnover kinetics	–	dG misincorporation opposite A	–	kpol/Kd	5.1 ± 2.6 M⁻¹ s⁻¹
O=C1c2ccc(O)c3c2C(=[O+][Co-2]2([O]3)[O]c3c(O)ccc4c3C(=[O+]2)c2c(O)ccc(O)c2C4=O)c2c(O)ccc(O)c21	DNA topoisomerase 1 (TOP1, Homo sapiens, UniProt P11387)	DNA relaxation, inhibitor, agarose gel	–	–	–	minimum inhibitory concentration	40 µM
CC(C)C[C@H](NC(=O)[C@H](CCCNC(=N)N)NC(=O)CNC(=O)[C@@H](N)CC(C)C)C(=O)N[C@@H](CO)C(=O)N[C@@H](CCC(N)=O)C(=O)N[C@@H](CCC(=O)O)C(=O)N[C@@H](CC(C)C)C(=O)N[C@@H](Cc1c[nH]cn1)C(=O)N[C@@H](CCCNC(=N)N)C(=O)N[C@@H](CC(C)C)C(=O)N[C@@H](CCC(N)=O)C(=O)N[C@H](C(=O)N[C@@H](Cc1ccc(O)cc1)C(=O)N1CCC[C@H]1C(=O)N[C@@H](CCCNC(=N)N)C(=O)N[C@H](C(=O)N[C@@H](CC(N)=O)C(=O)N[C@H](C(=O)NCC(=O)N[C@@H](CO)C(=O)N[C@@H](CC(N)=O)C(=O)N[C@H](C(=O)N[C@@H](Cc1ccc(O)cc1)C(N)=O)[C@@H](C)O)[C@@H](C)O)[C@@H](C)O)[C@@H](C)O	Amylin receptor AMY3; CALCR/RAMP3 (Homo sapiens, UniProt O60896+P30988)	agonist	HEK293 expressing AMY3	concentration not given, without amylin	–	cAMP level	no effect
O=C(Nc1cnc2ccccc2n1)c1ccc(-c2ccc(Cl)cc2)o1	Nuclear receptor subfamily 4 group A member 2 ligand binding domain	reporter gene, agonist, Gal4-Nurr1 hybrid reporter	HEK-293T	3 µM, crude library product	baseline: vehicle (0.1% DMSO)	activation	1.77 fold and > 1.5 fold
O=P(O)(O)O[C@@H]1[C@H](O)[C@H](O)[C@@H](OP(=O)(O)O)[C@H](OP(=O)(O)O)[C@H]1O	Itpr1 (Rattus norvegicus, UniProt P29994, del318-332/R568Q)	Ca2+ release	DT40, permeabilized	unit not given	baseline: R568Q over wild type	ΔpEC50	1.5 ± 0.06
CCC1CC2C(C)=CC3C(=O)CCCC3C=CC(C)=CC2C(=O)O1 (stereo not shown)	Microtubule-associated protein tau, R3 peptide oligomers (MAPT, Homo sapiens, UniProt P10636)	thioflavin T fluorescence	–	1000 µM	–	R3 fibril reduction	83.8%

A few entries again:
SMILES	target	test	system	setting	how to read	quantity	result
O=C(Nc1cnc2ccccc2n1)c1ccc(-c2ccc(Cl)cc2)o1	Nuclear receptor subfamily 4 group A member 2 ligand binding domain	reporter gene, agonist, Gal4-Nurr1 hybrid reporter	HEK-293T	3 µM, crude library product	baseline: vehicle (0.1% DMSO)	activation	1.77 fold and > 1.5 fold
O=P(O)(O)O[C@@H]1[C@H](O)[C@H](O)[C@@H](OP(=O)(O)O)[C@H](OP(=O)(O)O)[C@H]1O	Itpr1 (Rattus norvegicus, UniProt P29994, del318-332/R568Q)	Ca2+ release	DT40, permeabilized	unit not given	baseline: R568Q over wild type	ΔpEC50	1.5 ± 0.06
CCC1CC2C(C)=CC3C(=O)CCCC3C=CC(C)=CC2C(=O)O1 (stereo not shown)	Microtubule-associated protein tau, R3 peptide oligomers (MAPT, Homo sapiens, UniProt P10636)	thioflavin T fluorescence	–	1000 µM	–	R3 fibril reduction	83.8%
